Measurements of several laboratories.
Each numbered part is a random draw from the data of one study; scales do not carry over between parts. Positions count from the first letter of the parent shown.

Set 1
Target: RNA binding protein fox-1 homolog 2, RRM domain, GST-SBP tag (RBFOX2, Homo sapiens, UniProt O43251-10, residues 100-194)
Method: RNA Bind-n-Seq
Molecule type: RNA
Sample: in vitro
Tested at: 365 nM
Notes: natural RNA segment, single round, ends assumed
Baseline: no-protein control
Reading: higher = stronger binding
All sequences stand within: GGGAGUUCUACAGUCCGACGAUC … UGGAAUUCUCGGGUGCCAA
Target sequence (chain): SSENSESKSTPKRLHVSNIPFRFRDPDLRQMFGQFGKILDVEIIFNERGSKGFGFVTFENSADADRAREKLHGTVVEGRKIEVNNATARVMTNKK
| Sequence | RBNS enrichment (R) |
| --- | --- |
| UUCUGACUGUCCAGGAGCUAAUCUGACCGUUCUAUUGUGUGGAUGACCACAUAAGAAGGCAAUUUUAGUGUAUUAAUCAUAGAUUAUUAUAAACUAUAAACUUAAGGGCA | 0.445 |
| UUUCACAGAAAUAGUCCUUGUCAUUACAUUGUUCACUCAUGUGUUUGUACAUUUUUGUAUGUUAAUUUAUGAAUGAUUUUUUCAGUAAAAAAUACAUAUUCAAUAACCAA | 0.456 |
| UGACUUUUUCUUAAGUAGCUAAAGACCGAGAGUAUACUAUCUUUAGGGAUAGUCAUUUCUCAAAUGAGUUCUCUAAUAGAGAUUUUGUUCCUACAAUGUAGUCUGCACUG | 0.298 |
| UGUCUCCCUGAUUUUCUACAGCGCCAGGAUCCUAGUUUGGUGAGGUUUUAAAUUUAAUCUUAUUUUUAUAUAAAAUGAUUGCCAGACGUACUAUAUUAAGCUUGAAGAAG | 0.687 |
| UAUAAGAGGUAUAGCCUGGGCUAAUACCGUCCAAGUUACAACUCCUUGCUUGCUUUCUGUUCCUUCUAGCCUUGGUGACUUCCACCAGGAAGAGAAUACCCCCUCUCUAC | 1.94 |
| GGUUGAUUGAUUCACUGAUUAGUUUUACUGCCAUGUGCCUAUAACUAUAGGUUAUUCUCUUUCCUUUUCUAUGUUGUGUUUAUUCUAUUUAUUCUCUACAAUAUAUAAAA | 0.303 |
| UCUGAUUUGGUAUUGUGAUUUACUUCAGACCCUGAAACCAAAUAUCUGAUCUUCCAUUAGACUUAGGGGUCAUGAUAUGAGUGGAAUUUACAUUUUAGAUACUAUAGGGG | 0.36 |
| AGUCUGAGUUUACCGUCUGAAUGUAAAGUUCCGUGUUGUCCGCUCACGACGGAAGUGAAGAAGAUACUGCAUUCAAGUGUUUUUUGUAAAAGUUUGUCAUGGUGAAUAAC | 0.483 |
| CAGUGACUUUUACACACUCUCACACACACACACACACACAAAAUCUGUUCACAGUUUCUGUGUCUUUGGGUUCCUCCUUUUUCCAAGAGAAAAGGAUGUGACUGCCCAUC | 0.453 |
| CAGCACAAAUAAGAUGUUCAAGUGAGCCAGAAGCAAGAAGAGCCAUUUUAGUCUUCAUAGCUAUUGGCUAAGAGAGAUAAUGAGCUGAUGGUCUAUUUUAACCUUGAAAG | 0.444 |
| GAUCUGGCUGGCUUGGAUCUCGUUUUUAACCCGUUCCUGCCCCACCUGCCCUAUAGUUAUGGCCUGUGUUCUGCUCUCCUGGUCCCAGUGCACCGUCUGCUCUGUGAACU | 0.255 |
| GGGGGGUUGAUCACAUACAUGUACCAUCGUGUGAUCAUAGUACUAUGAUUUGCUUUUGACGUCUGUCCUAGUGAUGUGUGUUGUCUGCUGGCAUGCUUGCAGCACAUGUC | 0.628 |

Set 2
Target: ABI1, truncated, D143A, DHFR fusion (Arabidopsis thaliana)
Method: DHFR PCA, deep sequencing
Sample: yeast
Notes: methotrexate growth selection, single substitutions
With: (+)-ABA 2500 µM
Baseline: wild-type fitted maximum
Reading: higher = stronger binding
Starting sequence: PYL1, truncated, DHFR fusion (Arabidopsis thaliana); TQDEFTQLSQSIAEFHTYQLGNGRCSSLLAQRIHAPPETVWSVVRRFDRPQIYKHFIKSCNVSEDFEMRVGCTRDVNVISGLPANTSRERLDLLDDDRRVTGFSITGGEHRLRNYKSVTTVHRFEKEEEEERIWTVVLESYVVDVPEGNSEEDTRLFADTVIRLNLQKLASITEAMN; partner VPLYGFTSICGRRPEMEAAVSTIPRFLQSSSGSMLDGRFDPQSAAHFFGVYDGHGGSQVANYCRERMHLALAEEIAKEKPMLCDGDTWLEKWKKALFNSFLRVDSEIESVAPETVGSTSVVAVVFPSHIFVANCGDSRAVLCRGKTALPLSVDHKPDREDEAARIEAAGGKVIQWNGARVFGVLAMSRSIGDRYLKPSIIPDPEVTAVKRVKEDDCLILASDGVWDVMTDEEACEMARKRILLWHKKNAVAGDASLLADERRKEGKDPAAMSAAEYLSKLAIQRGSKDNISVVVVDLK
| Variant | relative binding score |
| --- | --- |
| T39W | 93.6% |
| T120L | 19.8% |
| T154H | 17.4% |
| G108M | 66.5% |
| R49L | 88.8% |
| P36W | 81.7% |
| H16P | 29.4% |
| A35V | 92% |
| D65S | 96.3% |
| V121E | -11.1% |
| L28T | 95.1% |
| L166Y | 41.9% |
| S104E | 88.3% |
| E67P | 87.1% |
| G81Q | 57.8% |
| K54Y | -8.02% |
| G148W | 85.2% |
| Q167T | 96% |
| M68Q | 93.9% |
| T120K | 28% |
| D153N | 80.1% |
| Y115K | -0.576% |
| L20R | 97.9% |
| Q19V | 99.8% |
| H34I | 102% |

Set 3
Target: JUND, bZIP domain (human)
Method: DHFR protein complementation
Sample: yeast
Notes: single substitutions, most at no-binding floor
Baseline: wild-type JUN-FOS pair
Reading: higher = stronger binding
Starting sequence: JUN, bZIP domain (human); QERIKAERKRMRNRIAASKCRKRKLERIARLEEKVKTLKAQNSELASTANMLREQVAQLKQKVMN; partner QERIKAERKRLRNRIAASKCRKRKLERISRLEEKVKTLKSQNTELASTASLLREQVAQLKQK
| Variant | binding fitness [natural log] |
| --- | --- |
| S47E | -0.326 |
| S47W | -0.84 |
| V56M | -0.725 |
| K36C | -0.895 |
| A46H | -0.847 |
| E32V | -1.03 |
| K36L | -0.826 |
| A46Y | -1.07 |
| V35A | -1.13 |
| M51R | -0.678 |
| Q41K | -0.911 |
| S47G | -0.797 |
| R30S | -0.521 |
| Q41L | -0.735 |
| N42W | -1.11 |
| I28W | -1.2 |
| A29G | -0.974 |
| E54L | -1.03 |
| E33F | -1.08 |
| T48C | -0.954 |
| K34T | -0.429 |
| M51S | -0.626 |
| E44V | -0.775 |
| S47M | -0.595 |
| I28K | -1.19 |

Set 4
Target: RING finger protein unkempt homolog, zinc fingers 1-6, SBP tag (UNK, Homo sapiens, UniProt Q9C0B0, residues 30-357)
Sequence of UniProt Q9C0B0 (30-357, looked up): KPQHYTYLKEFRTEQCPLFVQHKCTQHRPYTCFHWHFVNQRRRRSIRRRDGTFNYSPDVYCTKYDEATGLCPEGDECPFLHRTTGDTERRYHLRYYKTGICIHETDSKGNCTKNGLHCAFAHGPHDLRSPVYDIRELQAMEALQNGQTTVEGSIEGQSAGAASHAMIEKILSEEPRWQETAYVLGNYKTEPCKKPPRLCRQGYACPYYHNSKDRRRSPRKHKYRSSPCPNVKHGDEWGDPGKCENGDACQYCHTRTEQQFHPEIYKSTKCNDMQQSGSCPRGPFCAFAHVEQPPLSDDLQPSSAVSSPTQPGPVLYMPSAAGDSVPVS
Method: RNA Bind-n-Seq
Molecule type: RNA
Sample: in vitro
Tested at: 100 nM
Notes: RNA with constant flanks, vertebrate orthologous sites, ends assumed
Baseline: input RNA pool
Reading: higher = stronger binding
All sequences stand within: GGGAGUUCUACAGUCCGACGAUC … CAACAGAGGAUUGAGCAUCA
| Sequence | bound/input enrichment [ratio] |
| --- | --- |
| UAAAGAAUCAGGUAUUUAAAUAUCAAGUGGAAAAAUUUGAAACUCUAUUUAUGAAUUAGUUAGGUUAUUUAAAGAAAAAGGUCAUUCCUCAUUUGUGAAGUGCUGUGCAGUAAGUGCAUU | 0.999 |
| AAGAUUAUUAUUUUUUUUUUUAAAACAAUUCCAUGCAAUAUCACUUUCCUCACCUCCAGAACAAGACAACUUAAUUCUAGGCAUAUUAUUCAAAAUGUGCGAAUGUGUGAGCACGUUACG | 1.83 |
| GUUGUGACCCAUUUAACAUACACAAAAAACUAGCCAAAAAAAAUUUACAUGUAAUUGACUUAGAUGAUGCCACUUUCCUGAGUGCAAAAUUUGGAAGACAGCUUGUACCUGGUUGGAAGC | 2.45 |
| CUAAUUUCUAGUACUUAAGCCAACCAGUCUAAAUACUAUUUAUUUGUGUAAGUUUGUACAUAGAAAUACCAGCCUCAUUGCAGGGGCUUUUUGUUUGUUUAUUCAUUUUUGUUUUAAUGA | 0.501 |
| GACUAGAGUCUUAAUAAAUUACUCUGACAUUCUUAAAGUUCAUUUUGAAGGACGGAUCAGACUGUAGGAUGGUGCUGGUUUCUUCAGAUUUGUGUACUGUAUCUAAAGUUACAUUUUGCA | 0.558 |
| CAUGGGGAUGCUCUGGGGAGUGGCUGGACACUCAGCAUUGCUUCAUUUAUGACUUUGACAAUAGAUAGGCUUCUGGGGGUUUUUGUUUCUGUUUUUUUAAUUUAAUGAUAUUAAAACUUA | 0.504 |
| GUGGGAAAUAUUCUGGGGAGUCGCUGGACACUUAGCAUUGUUUGGUUUAUGAUUCUGACAAUAGAUAGGCUUGUGGGAUUUUUGUUUCUGUUUUUUUUUUUAAUUUAAUGAUAUUAAAAC | 1.53 |
| ACAUGCUCUCUGCAGGAAGCUGCUAGCUGCUUAGCAUUCAUUUGAUCCGUAAUAUUGAGAAGAAAGGUUUGUGGUGGUGUUUGUGUUUUUUUUUUUUAAGAUAUUGAGACUUAACUAAAA | 1.13 |
| CUUUAUGGGCCUCGCAGAGUUGAAAUACUGGAAGAGGAAAGUGAACAGUAAUCUUCAUUCUAGUAUUUAUGCUUAGGUGUGAAAUAAAUGUUACUUGUUGAUAAUUUCUAUAAUCCAGAG | 0.339 |
| AUUCAGACCUGUGGUACCAUGGCCUCAUGUUGAAGGAGUAGAAGUGGACUUAGAGUCUAUUAGAAGAAAAAACAAGGCCAAAAAUGAACAAGAGCACCGUGCUGGUGGAGAUUCCCAGAA | 0.384 |
| GCGUAUGCCGCUGUCACCAAAAUCAGACUACCGUAUUUCAAAUUUCAUUCAGAGUCAUUGUAGUGUUUCCUAUUCCCUACCCUUCCCACUACUUUCAAUGAUGAUGUAUCCUAAGUUCUU | 0.771 |

Set 5
Target: CCNE1, cyclin fold, Cln2 fusion (human)
Method: yeast growth competition, sequencing
Sample: yeast
Notes: weak parent motif
Baseline: not given
Reading: higher = stronger binding
Starting sequence: PKN2 docking peptide (human); VSAVQKLDFSDTM
| Variant | normalised enrichment score |
| --- | --- |
| D8A | 0.541 |
| V1F | 0.737 |
| A3L | 0.203 |
| T12H | 0.612 |
| D11V | 0.974 |
| M13Y | 1 |
| A3P | 0.945 |
| S10A | 0.207 |
| T12K | 0.264 |
| T12M | 0.38 |
| M13I | 0.712 |
| S10N | -0.289 |
| A3M | 0.435 |
| D11G | 0.638 |
| T12A | 0.715 |
| S10C | 0.428 |
| F9V | -0.656 |
| V4S | -0.16 |
| Q5R | 5.6 |
| M13N | 0.757 |
| D8L | 1.7 |
| F9R | 0.387 |
| L7E | 0.138 |
| F9Q | -0.0232 |
| V1L | 0.0939 |

A few entries again (set 3):
| Variant | binding fitness [natural log] |
| --- | --- |
| A46H | -0.847 |
| E32V | -1.03 |
| K36L | -0.826 |
| A46Y | -1.07 |
| V35A | -1.13 |
| M51R | -0.678 |
| Q41K | -0.911 |
| S47G | -0.797 |
| R30S | -0.521 |
| Q41L | -0.735 |
